Experimental data pooled from the literature.
Each numbered part is a random draw from the data of one study; scales do not carry over between parts. Substitutions count along the parent as printed.

Block 1
Target: Histone acetyltransferase KAT6A, both winged helices, GST fusion (KAT6A, Homo sapiens, UniProt Q92794, residues 1-181)
Technique: protein binding microarray
Molecule type: double-stranded DNA, one strand shown
Matrix: in vitro
Concentration: not given
Setting: 8-mer, flanks averaged, mean of 2 arrays, mostly near background
Baseline: not given
Direction: higher = stronger binding
Target sequence (chain): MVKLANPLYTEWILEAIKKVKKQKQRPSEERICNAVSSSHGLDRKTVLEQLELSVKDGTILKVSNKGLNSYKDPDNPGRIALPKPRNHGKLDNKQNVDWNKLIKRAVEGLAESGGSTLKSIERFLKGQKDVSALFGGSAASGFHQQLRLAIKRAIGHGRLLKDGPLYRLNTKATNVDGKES
| Oligonucleotide | E-score |
| --- | --- |
| CCTATGCA | -0.123 |
| TCGCTACA | 0.0568 |
| TAAGCCGA | 0.0678 |
| AAAATACT | -0.0753 |
| CCCGTTCG | 0.182 |
| GGCTTGGA | -0.0973 |
| AGACTCAA | 0.003 |
| TCGATTCA | -0.0671 |
| CTCGCGGC | 0.36 |
| ACAGGACC | -0.0548 |
| AAGTGACC | -0.175 |
| AGGTGTAT | -0.152 |
| GAGACCTA | -0.0653 |
| CCGAACTA | 0.0843 |
| CACGGCAA | 0.305 |
| AAAATTCA | -0.131 |
| AGACGATC | -0.0344 |
| ATATATAT | 0.0876 |
| GTCGGCAC | 0.175 |
| ACCGCACC | 0.166 |
| GCCACCCC | -0.038 |
| CTATATAA | 0.0213 |
| GGAGGCAA | -0.0703 |

Block 2
Target: Ras GTPase-activating protein-binding protein 1, full length (G3BP1, Homo sapiens, UniProt Q13283)
Sequence of UniProt Q13283 (whole entry, looked up): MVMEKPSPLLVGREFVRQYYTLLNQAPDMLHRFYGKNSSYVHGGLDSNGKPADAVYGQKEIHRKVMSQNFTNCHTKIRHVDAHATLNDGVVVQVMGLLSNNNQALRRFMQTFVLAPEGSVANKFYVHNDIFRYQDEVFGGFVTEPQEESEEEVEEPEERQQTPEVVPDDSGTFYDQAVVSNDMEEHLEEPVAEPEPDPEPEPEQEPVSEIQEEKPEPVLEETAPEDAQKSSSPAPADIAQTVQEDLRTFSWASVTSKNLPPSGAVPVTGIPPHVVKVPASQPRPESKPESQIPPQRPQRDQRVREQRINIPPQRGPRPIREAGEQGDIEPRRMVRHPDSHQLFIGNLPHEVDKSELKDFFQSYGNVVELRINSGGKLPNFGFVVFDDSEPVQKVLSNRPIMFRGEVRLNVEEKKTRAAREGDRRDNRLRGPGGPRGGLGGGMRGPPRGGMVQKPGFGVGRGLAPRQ
Technique: RNA Bind-n-Seq
Molecule type: RNA
Matrix: in vitro
Concentration: 200 nM
Setting: whole 134-nt RNA, ends assumed
Added: 150 mM LiCl
Baseline: input library
Direction: higher = stronger binding
Library: 7-deaza-guanosine replaces G
| Oligonucleotide | log2 enrichment |
| --- | --- |
| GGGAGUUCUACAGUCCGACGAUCGCAGCAAGUAAAAACAAAUGGAAAUGCUUCGGAUAGUGGCAGGGGUGGGGGUUGCUAAGGAAAGGGUGGGAUGGGAGUGGGUAAAGAGUUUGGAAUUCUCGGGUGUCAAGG | -0.105 |
| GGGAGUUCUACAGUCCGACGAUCCUCAAGUCCUGUGCUACACAUCGUAUGUACCGAAUCGGAAAGGAAAAAGGAGGAAAGUAUUAUGUUACGCCGUUCGGAUCUGCACUUCCAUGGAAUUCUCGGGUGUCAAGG | -0.222 |
| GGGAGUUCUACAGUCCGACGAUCAGUCCUGUGCUACACAUCGUAUGUACCGAAUCGGGUUUUUGGGUUUUUGGGAAAGGGAAAGUAUUAUGUUACGCCGUUCGGAUCUGCACUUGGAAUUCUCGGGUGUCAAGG | -0.504 |
| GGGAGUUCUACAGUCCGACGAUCUCCGCACACCCGGCCUGUCACCCUGCUUUCCCUGCCUCUACUUGACUUGGAAUUGGCUGAAGACUACACAGGAAUGCAUCGUUCCCACUCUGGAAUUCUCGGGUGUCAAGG | -0.00677 |
| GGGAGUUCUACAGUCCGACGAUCUGUGCUACACAUCGUAUGUACCGAAUCGGGGAAAAAAAGGGAAAAAAAGGGGAAAAAAAGGGGAAAGUAUUAUGUUACGCCGUUCGGAUCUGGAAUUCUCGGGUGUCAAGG | 0.644 |
| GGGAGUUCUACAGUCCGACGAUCUCAAGUCCUGUGCUACACAUCGUAUGUACCGAAUCGGAAGGGGAAGGGGAAGGGAAAGUAUUAUGUUACGCCGUUCGGAUCUGCACUUCCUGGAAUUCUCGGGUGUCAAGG | -0.287 |
| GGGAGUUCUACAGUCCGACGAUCUGGUUUGAGUCCAGCCAAUGACACUGGAGCCAAAAAGAAGAAAAAGAAACAAAAAAAGAAGAAAGAAAAAGGCAGUGAGACAGAUUCAGCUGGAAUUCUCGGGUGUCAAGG | 1.02 |
| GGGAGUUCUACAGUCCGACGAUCUGGAGCUGAAGAGCCAAGAGGCUCCGAGUCUGCAGCAGCAGCCAGACCAGUACCUGGAGCCCCAGUCCCACAAGGAGCUUGGAUGUGCGGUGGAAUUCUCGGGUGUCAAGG | -0.966 |
| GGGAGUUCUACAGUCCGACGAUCCUCAAGUCCUGUGCUACACAUCGUAUGUACCGAAUCGGGUUGGGUUGGGUUGGGAAAGUAUUAUGUUACGCCGUUCGGAUCUGCACUUCCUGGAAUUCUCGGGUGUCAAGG | 0.247 |
| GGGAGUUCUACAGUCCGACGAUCGUCCUGUGCUACACAUCGUAUGUACCGAAUCGGGGUUUUUGGGUUUUUGGGUUUUUGGAAAGUAUUAUGUUACGCCGUUCGGAUCUGCACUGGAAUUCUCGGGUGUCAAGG | -0.185 |
| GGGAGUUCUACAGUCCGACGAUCUCCUGUGCUACACAUCGUAUGUACCGAAUCGGGGUGGGGUUUUUUUGGGGAAAAAGGGGAAAGUAUUAUGUUACGCCGUUCGGAUCUGCAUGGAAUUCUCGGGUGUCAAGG | -0.258 |

Block 3
Target: ABI1, truncated, D143A, DHFR fusion (Arabidopsis thaliana)
Technique: DHFR PCA, deep sequencing
Matrix: yeast
Setting: methotrexate growth selection, single substitutions
Added: (+)-ABA 2500 µM
Baseline: wild-type fitted maximum
Direction: higher = stronger binding
Starting sequence: PYL1, truncated, DHFR fusion (Arabidopsis thaliana); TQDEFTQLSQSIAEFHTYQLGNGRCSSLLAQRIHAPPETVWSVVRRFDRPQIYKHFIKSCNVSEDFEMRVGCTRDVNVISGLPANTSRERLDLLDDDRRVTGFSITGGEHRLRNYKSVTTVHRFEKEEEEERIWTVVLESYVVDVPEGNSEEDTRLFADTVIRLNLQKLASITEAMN
| Change | relative binding score |
| --- | --- |
| V161I | 96.3% |
| R69H | 98.7% |
| D92P | -1.47% |
| A158H | 77.3% |
| L94H | 108% |
| S27Y | 84.3% |
| V43S | 83.4% |
| D92C | 84.8% |
| E125S | 100% |
| T6N | 102% |
| T154V | 96.9% |
| E64S | 96.5% |
| E64Y | 91.4% |
| L138H | 80.3% |
| D97F | 104% |
| T86W | 97.3% |
| T6I | 88% |

Block 4
Target: RING finger protein unkempt homolog, zinc fingers 1-6, GST-SBP tag (UNK, Homo sapiens, UniProt Q9C0B0, residues 30-357)
Sequence of UniProt Q9C0B0 (30-357, looked up): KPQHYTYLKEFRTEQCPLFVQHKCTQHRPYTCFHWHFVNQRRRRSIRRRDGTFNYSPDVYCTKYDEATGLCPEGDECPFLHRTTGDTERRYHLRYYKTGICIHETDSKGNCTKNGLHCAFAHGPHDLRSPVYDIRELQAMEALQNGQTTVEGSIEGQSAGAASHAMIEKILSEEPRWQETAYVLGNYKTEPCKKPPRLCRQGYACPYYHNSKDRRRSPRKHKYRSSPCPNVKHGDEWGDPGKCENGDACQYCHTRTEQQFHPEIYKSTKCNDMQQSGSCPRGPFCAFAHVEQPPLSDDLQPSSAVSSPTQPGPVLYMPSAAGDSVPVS
Technique: RNA Bind-n-Seq
Molecule type: RNA
Matrix: in vitro
Concentration: not given
Setting: RNA with constant flanks, human-mouse chimeric sites, ends assumed
Baseline: input RNA pool
Direction: higher = stronger binding
| Oligonucleotide | bound/input enrichment [ratio] |
| --- | --- |
| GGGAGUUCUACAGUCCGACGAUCAUAAAGGCUAUGUUGAGUGGUCCAGGUCAGUUUGCUGAGAAUGAAACCAAUGAGGUCAAUUUUAGAGAGAUACCUUCACAUGUGCUAUCAAAAGUGUGCAUGUAUUUUACCUACAAGGUCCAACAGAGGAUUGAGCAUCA | 0.114 |
| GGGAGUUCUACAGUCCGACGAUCUUUCUACUGCAGCAGACGAUGCUAAGAGUGAAGGAUCCUAAGAAGUCCCUGGAUUUUUAUACGAGGGUUCUUGGACUGACCCUCCUGCAGAAGCUUGACUUCCCUGCUAUGAAGUUCUCGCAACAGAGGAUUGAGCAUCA | 0.138 |
| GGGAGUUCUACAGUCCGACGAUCGAUGAUAAUCACACAAACAAGUCACUGUUACAUGACCAGAGUUGUACUUCUUUUCCUGAUUAGUAUUCUCCCUGGAACCACUGGUCAAGGGGAAUCAAGACGACAAGAACCCGGGGACUUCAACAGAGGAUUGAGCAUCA | 0.155 |
| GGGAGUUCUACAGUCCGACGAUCUACUCAACUUUCUUGCCACAUUUUGAAUUCCAAGAUGUUAUCCCUCCAGAUGACUUCCUAACGAGUGAUGAAGAGCAAGAUUUGGUUUUAUUUGGAACUAUGAGAGGACAAGUUGUUGGACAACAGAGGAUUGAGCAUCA | 0.147 |
| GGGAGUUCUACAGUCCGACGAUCUAAGUCCUGUGCCAGCACUUCGCUCAUAAAGUUUUAAAUUCAAGAAAAAUAGUGUUUGUUUCCUGAUUAUUGUAUCCAAUACUUUAUCUAGUAUGUAACUCACUCUUACUGAUAAUAAAACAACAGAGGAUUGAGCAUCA | 2.28 |
| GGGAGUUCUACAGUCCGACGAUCUUUCUAUUGCAGCAAACGAUGCUAAGAAUUAAGGAUCCUAAGAAGUCCCUGGAUUUUUAUACGAGGGUUCUUGGAAUGACCCUCCUGCAGAAGCUUGACUUCCCUGCUAUGAAGUUCUCGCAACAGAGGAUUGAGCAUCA | 0.0972 |
| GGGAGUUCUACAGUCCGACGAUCAAAUCGUGUGUGUCCAAUAUUGAAAGUGCUUUAUCUACACUCCAGUAUGUAAGCAGCAUAGUAGUUUCUUUAGAGAAUAGGUCAGCCAUUGUAAAGUACAAUGCAAGCUCAGUCACUCCACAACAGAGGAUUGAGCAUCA | 34.3 |
| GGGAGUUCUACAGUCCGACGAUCCACACACUCUUCUGCGGGACCCUCAUCCUGCAGGCCCGAGCCUACGUGGGACCGCACGUCCUGGCAGUGGUGACCCGCACAGGGUUCUGCACGGCAAAAGGGGGCCUGGUGAGCUCCAUCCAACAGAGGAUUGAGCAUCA | 0.0894 |
| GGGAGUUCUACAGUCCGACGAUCUAUAAUAAUCAUGAAAUUCGUUCCGGGAAACAUAUUGGUGUCUGCAUCUCAGUUGCCAACAAUAGGCUUUUUGUGGGCUCGAUUCCUAAGAGUAAAACCAAGGAGCAGAUUCUUGAGGAACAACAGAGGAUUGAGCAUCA | 3.51 |
| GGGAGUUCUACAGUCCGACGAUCCCAAUUGUGGAGCAGUACUUGAAGACAAAGAAAAAUUCUAAUAAUUUAAUCAUCAAGUACAUUAGCUGCCGCCUGCUGACAUUUGUGGUUAUACUGUUAGCGUGUAUCUACCUGGGCUAUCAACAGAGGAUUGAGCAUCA | 0.348 |
| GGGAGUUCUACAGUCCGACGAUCGAACCUGCUCUCUCUGAUGAAGAUGAGGAAGACAAUGAUGAUGUUGAACCCAUUUCUGAAUUUCGAUUUGUGCCCAGUGAUAAAUCAGCAUUGGAGGCGAUGUUCACAGCAAUGUGUGAGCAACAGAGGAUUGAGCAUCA | 0.26 |

Further values, each from its own experiment
| Substance | target | assay | system | setting | how to read | measurement | result |
| --- | --- | --- | --- | --- | --- | --- | --- |
| GSPLKKLFTATGL | human cyclin A2 | peptide binding, competitive growth sequencing | peptide, Saccharomyces cerevisiae, cyclin A2-Cln2 fusion strain | concentration not given, combined libraries | baseline: unfused Cln2 strain, direction not given | binding score | 1.32 |
| PhoQ, residues 284 288 289 292 302 303 NLGVHL | PhoP, residues 12 14 15 18 19 IQFRS (Escherichia coli, UniProt P23836) | Sort-seq, measured: YFP reporter | E. coli | PhoQ-PhoP variant library, added: 10 µM Mg2+ | baseline: high Mg2+ state, higher = stronger signaling | fold induction | 1.01 |

A few entries again (block 2):
| Oligonucleotide | log2 enrichment |
| --- | --- |
| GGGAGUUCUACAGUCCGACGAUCUGGAGCUGAAGAGCCAAGAGGCUCCGAGUCUGCAGCAGCAGCCAGACCAGUACCUGGAGCCCCAGUCCCACAAGGAGCUUGGAUGUGCGGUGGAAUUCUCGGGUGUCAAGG | -0.966 |
| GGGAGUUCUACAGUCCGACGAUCCUCAAGUCCUGUGCUACACAUCGUAUGUACCGAAUCGGGUUGGGUUGGGUUGGGAAAGUAUUAUGUUACGCCGUUCGGAUCUGCACUUCCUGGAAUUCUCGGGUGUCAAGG | 0.247 |
| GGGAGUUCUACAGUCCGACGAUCGUCCUGUGCUACACAUCGUAUGUACCGAAUCGGGGUUUUUGGGUUUUUGGGUUUUUGGAAAGUAUUAUGUUACGCCGUUCGGAUCUGCACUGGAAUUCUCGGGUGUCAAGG | -0.185 |
